Measurements from different studies.
Protocols differ between the studies behind these lines. ± gives the spread as reported.
AVPR2: Vasopressin V2 receptor (AVPR2, Homo sapiens, UniProt P30518)
Chain of UniProt P30518 (whole entry, looked up): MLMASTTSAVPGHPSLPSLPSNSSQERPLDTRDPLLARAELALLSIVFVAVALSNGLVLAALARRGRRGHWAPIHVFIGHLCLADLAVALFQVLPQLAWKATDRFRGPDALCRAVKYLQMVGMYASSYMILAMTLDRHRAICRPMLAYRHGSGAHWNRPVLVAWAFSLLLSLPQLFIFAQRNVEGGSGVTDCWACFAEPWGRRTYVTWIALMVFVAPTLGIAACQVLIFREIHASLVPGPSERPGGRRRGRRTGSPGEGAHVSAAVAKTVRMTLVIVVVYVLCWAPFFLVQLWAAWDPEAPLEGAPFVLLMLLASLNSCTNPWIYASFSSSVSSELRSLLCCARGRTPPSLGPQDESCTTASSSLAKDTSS
GRPR: Gastrin-releasing peptide receptor (GRPR, Homo sapiens, UniProt P30550)
Chain of UniProt P30550 (whole entry, looked up): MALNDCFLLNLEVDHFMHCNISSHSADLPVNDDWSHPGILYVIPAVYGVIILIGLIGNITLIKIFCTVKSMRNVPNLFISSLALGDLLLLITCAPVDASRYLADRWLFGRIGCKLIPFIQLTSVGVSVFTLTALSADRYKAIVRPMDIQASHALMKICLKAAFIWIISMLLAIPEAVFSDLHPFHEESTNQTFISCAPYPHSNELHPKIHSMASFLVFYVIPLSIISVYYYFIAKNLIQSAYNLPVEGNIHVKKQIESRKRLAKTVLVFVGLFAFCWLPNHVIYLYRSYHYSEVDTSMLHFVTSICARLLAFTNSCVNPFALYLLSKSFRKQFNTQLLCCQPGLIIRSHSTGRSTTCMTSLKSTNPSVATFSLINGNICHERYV
Sctr: Sctr (Rattus norvegicus, UniProt P23811)
Chain of UniProt P23811 (whole entry, looked up): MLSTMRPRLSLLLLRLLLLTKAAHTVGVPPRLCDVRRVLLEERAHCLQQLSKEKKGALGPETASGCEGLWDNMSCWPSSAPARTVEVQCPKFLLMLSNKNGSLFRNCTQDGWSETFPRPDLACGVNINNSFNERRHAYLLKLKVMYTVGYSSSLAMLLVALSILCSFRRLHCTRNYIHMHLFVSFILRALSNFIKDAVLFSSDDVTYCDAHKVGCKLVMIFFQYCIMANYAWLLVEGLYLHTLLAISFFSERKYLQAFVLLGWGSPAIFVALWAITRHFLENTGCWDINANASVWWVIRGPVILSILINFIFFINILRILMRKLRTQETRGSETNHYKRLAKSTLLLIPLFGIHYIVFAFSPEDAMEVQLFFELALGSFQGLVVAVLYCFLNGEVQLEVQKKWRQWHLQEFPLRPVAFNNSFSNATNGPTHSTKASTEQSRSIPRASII
FFAR2: Free fatty acid receptor 2 (FFAR2, Homo sapiens, UniProt O15552)
Chain of UniProt O15552 (whole entry, looked up): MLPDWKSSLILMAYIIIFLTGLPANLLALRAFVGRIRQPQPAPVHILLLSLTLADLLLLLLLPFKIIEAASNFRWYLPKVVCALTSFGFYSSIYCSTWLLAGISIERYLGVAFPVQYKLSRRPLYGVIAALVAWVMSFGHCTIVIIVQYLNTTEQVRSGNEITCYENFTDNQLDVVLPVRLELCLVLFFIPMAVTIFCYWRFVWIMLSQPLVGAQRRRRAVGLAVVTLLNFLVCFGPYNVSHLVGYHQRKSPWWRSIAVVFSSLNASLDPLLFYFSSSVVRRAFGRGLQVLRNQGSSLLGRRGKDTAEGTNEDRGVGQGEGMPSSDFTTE
Chain of UniProt P18505 (whole entry, looked up): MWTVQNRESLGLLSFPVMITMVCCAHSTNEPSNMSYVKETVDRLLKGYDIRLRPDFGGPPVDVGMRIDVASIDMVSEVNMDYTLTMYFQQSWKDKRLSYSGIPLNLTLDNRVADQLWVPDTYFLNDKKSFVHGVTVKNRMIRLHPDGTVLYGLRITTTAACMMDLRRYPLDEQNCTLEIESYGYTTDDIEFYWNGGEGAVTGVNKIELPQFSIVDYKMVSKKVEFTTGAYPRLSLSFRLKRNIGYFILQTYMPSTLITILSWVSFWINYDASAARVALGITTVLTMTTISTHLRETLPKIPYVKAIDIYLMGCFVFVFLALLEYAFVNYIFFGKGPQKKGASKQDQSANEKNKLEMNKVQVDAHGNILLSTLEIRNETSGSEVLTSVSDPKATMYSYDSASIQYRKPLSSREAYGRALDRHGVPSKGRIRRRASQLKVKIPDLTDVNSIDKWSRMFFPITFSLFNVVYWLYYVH
Chain of UniProt Q3TBT3 (whole entry, looked up): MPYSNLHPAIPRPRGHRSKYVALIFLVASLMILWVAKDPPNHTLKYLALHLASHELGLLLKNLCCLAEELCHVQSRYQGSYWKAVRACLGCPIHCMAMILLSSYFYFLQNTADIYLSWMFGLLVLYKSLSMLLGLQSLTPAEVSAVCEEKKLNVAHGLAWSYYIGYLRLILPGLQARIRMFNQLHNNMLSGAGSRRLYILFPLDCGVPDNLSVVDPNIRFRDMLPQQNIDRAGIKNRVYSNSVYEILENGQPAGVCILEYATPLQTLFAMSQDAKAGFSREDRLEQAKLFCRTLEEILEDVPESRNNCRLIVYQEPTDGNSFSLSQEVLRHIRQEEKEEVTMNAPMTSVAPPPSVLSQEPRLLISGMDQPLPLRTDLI
Chain of UniProt Q16740 (whole entry, looked up): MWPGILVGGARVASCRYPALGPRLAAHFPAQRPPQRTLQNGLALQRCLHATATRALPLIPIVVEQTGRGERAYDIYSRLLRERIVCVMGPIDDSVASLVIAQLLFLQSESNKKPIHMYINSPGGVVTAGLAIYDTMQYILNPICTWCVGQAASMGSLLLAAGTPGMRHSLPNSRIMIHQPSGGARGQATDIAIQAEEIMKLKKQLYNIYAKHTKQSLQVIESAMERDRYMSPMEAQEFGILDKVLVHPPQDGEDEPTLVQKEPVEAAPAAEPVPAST
Chain of UniProt Q01727 (whole entry, looked up): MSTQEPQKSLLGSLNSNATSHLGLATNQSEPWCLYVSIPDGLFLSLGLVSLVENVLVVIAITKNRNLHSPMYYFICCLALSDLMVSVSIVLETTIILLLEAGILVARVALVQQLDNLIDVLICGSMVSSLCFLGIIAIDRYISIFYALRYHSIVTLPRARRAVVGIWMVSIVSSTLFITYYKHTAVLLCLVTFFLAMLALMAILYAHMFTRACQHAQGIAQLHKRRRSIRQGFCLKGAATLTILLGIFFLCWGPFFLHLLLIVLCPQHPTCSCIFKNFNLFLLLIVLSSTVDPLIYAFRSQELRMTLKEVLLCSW
Chain of UniProt P18507 (whole entry, looked up): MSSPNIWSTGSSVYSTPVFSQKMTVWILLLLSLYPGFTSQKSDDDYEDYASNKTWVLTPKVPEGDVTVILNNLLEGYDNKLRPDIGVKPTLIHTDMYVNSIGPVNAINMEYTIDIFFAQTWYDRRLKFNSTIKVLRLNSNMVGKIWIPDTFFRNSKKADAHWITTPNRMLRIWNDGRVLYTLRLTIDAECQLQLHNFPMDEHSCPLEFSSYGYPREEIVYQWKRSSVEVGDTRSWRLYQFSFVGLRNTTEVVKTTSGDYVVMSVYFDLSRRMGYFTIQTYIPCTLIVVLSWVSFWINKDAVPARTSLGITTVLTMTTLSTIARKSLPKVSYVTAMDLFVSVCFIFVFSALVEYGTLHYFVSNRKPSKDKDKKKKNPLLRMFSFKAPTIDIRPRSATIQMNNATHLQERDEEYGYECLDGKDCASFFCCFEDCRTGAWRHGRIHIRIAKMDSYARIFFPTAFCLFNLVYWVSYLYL
Chain of UniProt Q9WUP0 (whole entry, unmodified, looked up): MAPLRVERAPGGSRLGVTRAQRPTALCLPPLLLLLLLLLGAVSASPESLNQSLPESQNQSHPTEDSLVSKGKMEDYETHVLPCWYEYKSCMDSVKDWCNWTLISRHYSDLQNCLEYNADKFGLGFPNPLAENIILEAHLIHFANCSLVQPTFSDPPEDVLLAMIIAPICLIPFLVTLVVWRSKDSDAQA
Chain of UniProt Q14011 (whole entry, looked up): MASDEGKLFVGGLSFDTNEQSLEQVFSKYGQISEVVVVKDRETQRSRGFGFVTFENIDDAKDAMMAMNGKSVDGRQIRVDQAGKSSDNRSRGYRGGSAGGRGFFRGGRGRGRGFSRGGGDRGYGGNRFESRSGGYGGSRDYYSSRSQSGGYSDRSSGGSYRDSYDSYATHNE
Chain of UniProt P47869 (whole entry, looked up): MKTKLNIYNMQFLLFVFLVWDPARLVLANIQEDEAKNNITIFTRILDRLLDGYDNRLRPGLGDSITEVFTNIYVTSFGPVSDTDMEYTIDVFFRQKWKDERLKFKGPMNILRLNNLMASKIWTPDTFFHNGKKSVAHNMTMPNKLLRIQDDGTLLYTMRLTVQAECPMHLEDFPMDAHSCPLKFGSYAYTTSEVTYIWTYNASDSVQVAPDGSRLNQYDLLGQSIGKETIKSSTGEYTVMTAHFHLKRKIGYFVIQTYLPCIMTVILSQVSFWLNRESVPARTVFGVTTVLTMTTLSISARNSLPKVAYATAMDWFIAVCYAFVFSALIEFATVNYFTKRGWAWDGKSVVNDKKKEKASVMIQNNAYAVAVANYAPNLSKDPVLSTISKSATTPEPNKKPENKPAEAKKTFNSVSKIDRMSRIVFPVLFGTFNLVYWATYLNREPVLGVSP
Chain of UniProt Q13526 (whole entry, looked up): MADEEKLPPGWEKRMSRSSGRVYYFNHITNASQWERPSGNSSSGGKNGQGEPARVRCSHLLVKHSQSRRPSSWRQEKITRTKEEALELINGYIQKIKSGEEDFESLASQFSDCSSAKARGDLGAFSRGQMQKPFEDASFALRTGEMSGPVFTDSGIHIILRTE

Structure (SMILES)	target	assay	system	setting	scale	EC50 [nM]
NCCCC[C@H](NC(=O)[C@@H]1CCCN1C(=O)[C@@H]1CSSCCC(=O)N[C@@H](Cc2ccc(O)cc2)C(=O)N[C@@H](Cc2ccccc2)C(=O)N[C@@H](CCCC(N)=O)C(=O)N[C@@H](CC(N)=O)C(=O)N1)C(=O)NCC(N)=O	AVPR2	calcium signal, agonist	–	–	–	0.26
CC(C)C[C@@H]1NC(=O)[C@H](Cc2c[nH]cn2)NC(=O)[C@@H](C)NC(=O)[C@H](C(C)C)NC(=O)[C@H](C)NC(=O)[C@H](Cc2c[nH]c3ccccc23)NC(=O)[C@H](CCC(N)=O)NC(=O)[C@H](N)CSSC[C@@H](C(N)=O)NC1=O	GRPR	inositol phosphate, agonist	–	–	–	100
CC1(C)C(=O)C(O)=C[C@]2(C)[C@H]3C(=O)C=C4[C@@H]5C[C@@](C)(NC(=O)NCc6ccco6)CC[C@]5(C)CC[C@@]4(C)[C@]3(C)CC[C@@H]12	Stimulator of interferon genes protein (Sting1, Mus musculus, UniProt Q3TBT3)	agonist	–	–	–	7540
CC(=O)Oc1ccccc1C(=O)Nc1ccccc1Sc1ncnc2scc(-c3ccccc3)c12	CIRBP (Homo sapiens, UniProt Q14011)	thermal stabilisation, cellular thermal shift	LOX-IM-VI overexpressing GFP-CIRBP	3 h, 57 °C	–	4700
COc1ccc(-c2cc(C(F)(F)F)nc(S(=O)(=O)CCCC(=O)Nc3ccccc3F)n2)cc1OC	AVPR2	cAMP accumulation, positive allosteric modulator	CHO-K1 overexpressing AVPR2	added: vasopressin at EC20	–	13000 ± 13000
CC(C)C[C@H](NC(=O)CNC(=O)[C@H](CCC(N)=O)NC(=O)[C@H](CC(C)C)NC(=O)[C@H](CC(C)C)NC(=O)[C@H](CCCNC(=N)N)NC(=O)[C@H](CCC(N)=O)NC(=O)[C@H](CC(C)C)NC(=O)[C@H](CCCNC(=N)N)NC(=O)[C@H](C)NC(=O)[C@H](CO)NC(=O)[C@H](C)NC(=O)[C@H](CCC(N)=O)NC(=O)[C@H](CC(C)C)NC(=O)[C@H](CCCNC(=N)N)NC(=O)[C@H](CO)NC(=O)[C@H](CC(C)C)NC(=O)[C@H](CCC(=O)O)NC(=O)[C@H](CO)NC(=O)[C@@H](NC(=O)[C@H](Cc1ccccc1)NC(=O)[C@@H](NC(=O)CNC(=O)[C@H](CC(=O)O)NC(=O)[C@H](CO)NC(=O)[C@@H](N)Cc1c[nH]cn1)[C@@H](C)O)[C@@H](C)O)C(=O)N[C@H](C(N)=O)C(C)C	Sctr	cAMP production, agonist	CHO-SecR	30 min, 37 °C, added: 1 mM IBMX	–	2.6 ± 0.6
O=S1(=O)c2ccccc2-c2cccc(-n3cc[n+](Cc4ccccc4)c3)c21	Peptidyl-prolyl cis-trans isomerase NIMA-interacting 1 (PIN1, Homo sapiens, UniProt Q13526)	–	–	–	–	~5000
O=C(O)C1CCC1	FFAR2	agonist	–	–	–	468000
COc1cc(F)c(C(C)C)cc1C1=C(CN2C(=O)O[C@H](c3cc(C(F)(F)F)cc(C(F)(F)F)c3)[C@@H]2C)CC(C)(C)CC1	Cholesteryl ester transfer protein (Homo sapiens, UniProt P11597)	plasma enzyme activity, inhibitor, PK/PD sigmoid Emax model	healthy male human, plasma	oral, single dose 25 to 400 mg	–	28.8
O=P(O)(O)O[C@@H]1[C@@H](O)[C@H](O)[C@H](O)[C@H](O)[C@H]1OP(=O)(O)O	Inositol 1,4,5-trisphosphate-gated calcium channel ITPR1 (Itpr1, Rattus norvegicus, UniProt P29994, del318-332/R568Q)	Ca2+ release, agonist	permeabilized DT40 cells	–	–	8050
O=C1C2=C(CCN(Cc3ccccc3)C2)N2CCN=C2N1Cc1ccc(C(F)(F)F)cc1	ATP-dependent Clp protease proteolytic subunit, mitochondrial (CLPP, Homo sapiens, UniProt Q16740)	enzyme activity, activator	–	added: Ac-WLA-AMC substrate	–	131 ± 17.8
CCCC[C@H](NC(=O)[C@H](Cc1ccccc1)NC(=O)[C@H](Cc1c[nH]cn1)NC(=O)CCNC(=O)[C@@H](NC(=O)[C@H](C)NC(=O)[C@H](Cc1c[nH]c2ccccc12)NC(=O)[C@H](CC(N)=O)NC(=O)[C@@H](Cc1ccc(O)cc1)NC(=O)[C@@H](CO)NC(=O)[C@H](CO)NC(=O)[C@H](N)CO)C(C)C)C(N)=O	GRPR	inositol phosphate, agonist	–	–	–	2.04
Cc1cc(N/C=C(\C(=O)NC2CCC2)C(=O)c2ccc(Cl)cc2Cl)no1	Gamma-aminobutyric acid receptor subunit alpha-2/beta-1/gamma-2 (Homo sapiens, UniProt P18505+P18507+P47869)	GABA current potentiation, positive modulator, two-electrode voltage clamp	Xenopus laevis oocytes	30 s preincubation, added: GABA EC10	–	410 ± 70
CSCC[C@H](NC(=O)[C@H](CC(C)C)NC(=O)[C@H](Cc1c[nH]cn1)NC(=O)[C@@H](C)NC(=O)[C@@H](NC(=O)[C@H](C)NC(=O)[C@H](Cc1c[nH]c2ccccc12)NC(=O)[C@H](CCC(N)=O)NC(=O)[C@H](CC(N)=O)NC(=O)CNC(=O)[C@H](CC(C)C)NC(=O)[C@H](CCCNC(=N)N)NC(=O)[C@H](CCC(N)=O)NC(=O)[C@@H]1CCC(=O)N1)C(C)C)C(N)=O	GRPR	inositol phosphate formation, agonist	HuTu80	45 min, 37 °C	reference: 1 µM GRP	1.2 ± 0.08
C/C=C/C(=O)O	FFAR2	agonist	–	–	–	170000
CC[C@H](C)[C@H](NC(=O)[C@H](CCC(N)=O)NC(=O)[C@H](Cc1c[nH]cn1)NC(=O)[C@H](C)NC(=O)[C@H](CC(C)C)NC(=O)[C@H](CCCCN)NC(=O)[C@H](CCC(N)=O)NC(=O)[C@@H](NC(=O)[C@@H](NC(=O)[C@@H]1CSSC[C@H](NC(=O)CNC(=O)[C@H](Cc2ccccc2)NC(=O)[C@H](CO)NC(=O)[C@H](CCCNC(=N)N)NC(=O)[C@H](CC(C)C)NC(=O)CNC(=O)[C@H](CCC(N)=O)NC(=O)[C@H](Cc2ccccc2)NC(=O)[C@H](CC(N)=O)NC(=O)[C@H](CC(N)=O)NC(=O)[C@H](CCSC)NC(=O)[C@H](CO)NC(=O)[C@H](CCC(N)=O)NC(=O)[C@H](CCCNC(=N)N)NC(=O)[C@@H](N)Cc2ccc(O)cc2)C(=O)N[C@@H](CCCNC(=N)N)C(=O)N[C@@H](Cc2ccccc2)C(=O)NCC(=O)N[C@@H]([C@@H](C)O)C(=O)N1)[C@@H](C)O)C(C)C)C(=O)N[C@@H](Cc1ccc(O)cc1)C(=O)N[C@@H](CCC(N)=O)C(=O)N[C@@H](Cc1ccccc1)C(=O)N[C@H](C(=O)N[C@@H](CC(=O)O)C(=O)N[C@@H](CCCCN)C(=O)N[C@@H](CC(=O)O)C(=O)N[C@@H](CCCCN)C(=O)N[C@@H](CC(=O)O)C(=O)N[C@@H](CC(N)=O)C(=O)N[C@H](C(=O)N[C@@H](C)C(=O)N1CCC[C@H]1C(=O)N[C@@H](CCCNC(=N)N)C(=O)N[C@@H](CO)C(=O)N[C@@H](CCCCN)C(=O)N[C@H](C(=O)N[C@@H](CO)C(=O)N1CCC[C@H]1C(=O)N[C@@H](CCC(N)=O)C(=O)NCC(=O)N[C@@H](Cc1ccc(O)cc1)C(N)=O)[C@@H](C)CC)C(C)C)[C@@H](C)O	Calcr/Ramp2 (Mus musculus, UniProt Q60755+Q9WUP0, P10T)	cAMP production, agonist	COS-7, transfected	15 min, 37 °C, added: IBMX 1 mM	–	100
CC(C)C[C@H](NC(=O)CNC(=O)[C@H](CCC(N)=O)NC(=O)[C@H](CC(C)C)NC(=O)[C@H](CC(C)C)NC(=O)[C@H](CCCNC(=N)N)NC(=O)[C@H](C)NC(=O)[C@H](CC(C)C)NC(=O)[C@H](CCCNC(=N)N)NC(=O)[C@H](C)NC(=O)[C@H](CO)NC(=O)[C@H](CC(=O)O)NC(=O)[C@H](CCC(N)=O)NC(=O)[C@H](CC(C)C)NC(=O)[C@H](CCCNC(=N)N)NC(=O)[C@H](CO)NC(=O)[C@H](CC(C)C)NC(=O)[C@H](CCC(=O)O)NC(=O)[C@H](CO)NC(=O)[C@@H](NC(=O)[C@H](Cc1ccccc1)NC(=O)[C@@H](NC(=O)CNC(=O)[C@H](CC(=O)O)NC(=O)[C@H](CO)NC(=O)[C@@H](N)Cc1c[nH]cn1)[C@@H](C)O)[C@@H](C)O)C(=O)N[C@H](C(N)=O)C(C)C	Sctr	cAMP production, agonist	CHO-SecR	30 min, 37 °C, added: 1 mM IBMX	–	0.2 ± 0.04
C[C@H](NC(=O)[C@H](CC(N)=O)NC(=O)[C@H](Cc1c[nH]c2ccccc12)NC(=O)[C@H](CCCNC(=N)N)NC(=O)[C@@H](Cc1ccccc1)NC(=O)[C@H](Cc1c[nH]cn1)NC(=O)[C@H](CN=[N+]=[N-])NC(=O)[C@@H](N)Cc1ccc(O)cc1)C(=O)N[C@@H](Cc1ccccc1)C(=O)N[C@@H](CN=[N+]=[N-])C(=O)N[C@@H](Cc1ccc(O)cc1)C(N)=O	Melanocyte-stimulating hormone receptor (Mc1r, Mus musculus, UniProt Q01727)	agonist	–	–	–	5 ± 0.24
CC(C)C[C@H](NC(=O)CNC(=O)[C@H](CCC(N)=O)NC(=O)[C@H](CC(C)C)NC(=O)[C@H](CC(C)C)NC(=O)[C@H](CCCN=C(N)N)NC(=O)[C@H](CCC(N)=O)NC(=O)[C@H](CC(C)C)NC(=O)[C@H](CCCN=C(N)N)NC(=O)[C@H](C)NC(=O)[C@H](CO)NC(=O)[C@H](CC(=O)O)NC(=O)[C@H](CCC(N)=O)NC(=O)[C@H](CC(C)C)NC(=O)[C@H](CCCN=C(N)N)NC(=O)[C@H](CO)NC(=O)[C@H](CC(C)C)NC(=O)[C@H](CCC(=O)O)NC(=O)[C@H](CO)NC(=O)[C@@H](NC(=O)[C@H](Cc1ccccc1)NC(=O)[C@@H](NC(=O)CNC(=O)[C@H](CC(=O)O)NC(=O)[C@H](CO)NC(=O)[C@@H](N)Cc1cnc[nH]1)[C@@H](C)O)[C@@H](C)O)C(=O)N[C@H](C(N)=O)C(C)C	Sctr	cAMP production, agonist	CHO-SecR	30 min, 37 °C, added: 1 mM IBMX	–	0.05
CC(C)NC(=O)c1ccc2nc(-c3ccccc3)cn2c1	Protein ENL, YEATS domain (MLLT1, Homo sapiens, UniProt Q03111)	–	–	cell-based	–	9000

Some of these lines once more:
Structure (SMILES)	target	assay	system	setting	scale	EC50 [nM]
CC(C)C[C@@H]1NC(=O)[C@H](Cc2c[nH]cn2)NC(=O)[C@@H](C)NC(=O)[C@H](C(C)C)NC(=O)[C@H](C)NC(=O)[C@H](Cc2c[nH]c3ccccc23)NC(=O)[C@H](CCC(N)=O)NC(=O)[C@H](N)CSSC[C@@H](C(N)=O)NC1=O	GRPR	inositol phosphate, agonist	–	–	–	100
CCCC[C@H](NC(=O)[C@H](Cc1ccccc1)NC(=O)[C@H](Cc1c[nH]cn1)NC(=O)CCNC(=O)[C@@H](NC(=O)[C@H](C)NC(=O)[C@H](Cc1c[nH]c2ccccc12)NC(=O)[C@H](CC(N)=O)NC(=O)[C@@H](Cc1ccc(O)cc1)NC(=O)[C@@H](CO)NC(=O)[C@H](CO)NC(=O)[C@H](N)CO)C(C)C)C(N)=O	GRPR	inositol phosphate, agonist	–	–	–	2.04
